{"data": "Results pooled from the literature", "note": "Compare with care: the assays were run in different laboratories. “And” joins repeats or separate records; there may be more than shown. Numbers after ± are the reported error."}
{"SMILES": "CCCCN1C(=O)c2cccc3c(NCCCCCCCCN4CCOCC4)ccc(c23)C1=O", "system": "toluene", "endpoint": "fluorescence quantum yield", "value": 0.98}
{"SMILES": "N#Cc1cc(NC(=O)C2c3ccccc3C(=O)N(CC(F)(F)F)C2c2ccc[n+]([O-])c2)ccc1F (stereo not shown)", "system": "Beagle dog", "setting": "oral, dose not given, finding, dose range, 4 day", "endpoint": "maximum mean AUC(0-24)", "value": "158 µg·h/mL"}
{"SMILES": "O=C([O-])CN1CCN(CC(=O)[O-])CCN(CC(=O)NC[C@H]2CC[C@H](C(=O)N[C@H](Cc3cnc4ccccc4c3)C(=O)NCCCC[C@H](NC(=O)N[C@@H](CCC(=O)O)C(=O)O)C(=O)O)CC2)CCN(CC(=O)[O-])CC1.[64Cu+2]", "test": "ex vivo gamma counting", "system": "22Rv1 tumour-bearing mice, intestine", "setting": "intravenous, 0.74 MBq, 6 h post-injection", "endpoint": "tissue uptake", "value": "29.6 %ID/g"}
{"SMILES": "CN1CCC[C@]1(C)/C=C/S(=O)(=O)NC(=O)Nc1c2c(cc3c1CCC3)CC=C2", "system": "human, plasma", "setting": "oral, 12.5 mg twice daily of parent drug, day 14, metabolite of dosed drug", "endpoint": "AUC(0-24)", "value": "137 µg·h/mL"}
{"SMILES": "[123I]c1ccc2nc(-c3ccc(-n4ccnn4)nc3)cn2c1", "system": "male Wistar rat, lung", "setting": "intravenous, 4 MBq, 30 min", "endpoint": "tracer uptake", "value": "0.399 %ID/g"}
{"SMILES": "CC(C)C[C@H](NC(=O)[C@@H](CCCCNC(=O)[C@@H](Cc1ccccc1)NC(=O)CCCCCCCNC(=O)CN1CCN(CC(=O)O)CCN(CC(=O)O)CCN(CC(=O)O)CC1)NC(=O)[C@H](Cc1ccc(O)cc1)NC(=O)[C@H](CO)NC(=O)[C@H](Cc1c[nH]c2ccccc12)NC(=O)[C@H](Cc1c[nH]cn1)NC(=O)[C@@H]1CCC(=O)N1)C(=O)N[C@@H](CCCNC(=N)N)C(=O)N1CCC[C@H]1C(=O)NCC(N)=O [indium-111 labelled]", "test": "biodistribution", "system": "male athymic nude mice, DU-145 prostate cancer xenograft, lung", "setting": "intravenous, 0.037 MBq, 1 h post-injection", "endpoint": "tissue uptake", "value": "0.58 ± 0.1 %ID/g"}
{"SMILES": "O=C(Nc1cnccc1-c1ccc([18F])nc1)c1ccnc(NC(=O)C2CC2)c1", "system": "FVB/NJ mice, both sexes, brain", "setting": "intravenous, 5 min, median, no P-gp inhibitor", "endpoint": "SUV", "value": 0.184}
{"SMILES": "CN1CCC[C@]1(C)/C=C/S(=O)(=O)NC(=O)Nc1c2c(cc3c1C(O)CC3)CCC2 (stereo partly shown)", "system": "human, plasma", "setting": "oral, 50 mg twice daily of parent drug, day 1, metabolite of dosed drug", "endpoint": "AUC(0-24)", "value": "140 µg·h/mL"}
{"SMILES": "Cc1nn(-c2nc3c(F)cc(F)cc3s2)c(O)c1C(c1ccc(C(F)(F)F)cc1)c1c(C)nn(-c2nc3c(F)cc(F)cc3s2)c1O", "system": "ICR mouse, plasma", "setting": "intravenous, 5 mg/kg", "endpoint": "terminal volume of distribution (Vz, observed)", "value": "0.794 L/kg and 0.651 L/kg and 1.62 L/kg"}
{"SMILES": "CC(=O)N([O-])CCCCCNC(=O)CCC(=O)N([O-])CCCCCNC(=O)CCC(=O)N([O-])CCCCCN.[89Zr+4]", "test": "radio-TLC", "system": "aqueous buffer", "setting": "3 d, pH 7.2, 37 °C, 89Zr-labelled complex, with: CoCl2 10-fold excess", "endpoint": "intact complex", "value": "96.7 ± 2.3%"}
{"SMILES": "CCN(CC)c1ccc2c(c1)O[B-]1(c3ccc(C)cc3)OC(=O)C(c3ccccc3)=N[N+]1=C2 (stereo not shown)", "test": "UV/vis decay", "system": "aqueous buffer", "endpoint": "hydrolysis activation energy", "value": "22.2 kcal/mol"}
{"SMILES": "Cc1nc(N)nc2c1C(=O)N[C@@H](c1ccc(F)cc1-c1cccc(O[11CH3])n1)C2", "test": "ex vivo biodistribution", "system": "mouse, U87 subcutaneous xenograft, tumour", "setting": "60 min, vehicle pretreatment baseline", "endpoint": "SUV", "value": "2 ± 0.1"}
{"SMILES": "O=C(Nc1cnccc1-c1ccc([18F])cc1)c1ccnc(NC(=O)C2CC2)c1", "test": "ex vivo gamma counting", "system": "GSK-3β transgenic mice, late-stage, cerebellum", "setting": "intravenous, 1.26 MBq/animal, 120 min, mean, no P-gp inhibitor", "endpoint": "SUV", "value": 0.14}
{"SMILES": "O=C([O-])CN1CCN(CC(=O)[O-])CCN(CC(CCCc2ccccc2[N+](=O)[O-])N(CC(=O)[O-])CC(=O)[O-])CC1.[90Y+3] (stereo not shown)", "test": "TLC", "system": "human serum", "setting": "23 h, pH 7, 37 °C", "endpoint": "intact radiolabelled complex", "value": "99.9 ± 0.1%"}
{"SMILES": "C=CC(=O)Nc1cc(Nc2nccc(-c3c[nH]c4ccccc34)n2)c(OC)cc1N(C)CCN(C)C", "system": "human plasma", "setting": "24 h, storage stability, low QC sample", "endpoint": "recovery", "value": "56.4%"}
{"SMILES": "O=C([O-])CN1CCN(CC(=O)[O-])CCN(C(CO)C(O)CO)CCN(CC(=O)[O-])CC1.[Dy+3] (stereo not shown)", "system": "cynomolgus monkey, kidney medulla", "setting": "dose not given, day 5", "endpoint": "lanthanide concentration", "value": "13 ± 3.8 nmol/g"}
{"SMILES": "CC[C@H](C)[C@H](NC(=O)C[C@H](NC(=O)CN1CCN2CCN(CC1)CC(=O)[O][Al]([18F])[O]C(=O)C2)C(=O)O)C(=O)N[C@H]1CCc2cccc3c2N(C1=O)[C@H](C(=O)NCc1cn[nH]n1)C3", "test": "PET", "system": "C57BL/6J mice with MC-38 tumour, PBS-treated", "setting": "30 min", "endpoint": "maximum tumour uptake", "value": "0.82 ± 0.09 %ID/g"}
{"SMILES": "CCN(CC)c1ccc2c(c1)O[B-]1(c3ccccc3)OC(=O)C(c3ccccc3)=N[N+]1=C2 (stereo not shown)", "test": "UV/vis decay", "system": "aqueous buffer", "endpoint": "hydrolysis activation energy", "value": "20.8 kcal/mol"}
{"SMILES": "CN(CCNCc1ccncc1O)CCNCc1ccncc1O", "test": "potentiometric titration", "system": "aqueous KCl solution", "setting": "1 mM, 25 °C, 0.1 M KCl", "endpoint": "protonation constant logK4H", "value": 3.6}
{"SMILES": "Cc1cc(-c2ccc(C(=O)[C@@H]3CCCC[C@H]3C(=O)Nc3cnn4c3C(=O)NCC4)cc2)[nH]n1", "system": "human, urine", "setting": "oral, 200 mg", "scale": "baseline: dose", "endpoint": "cumulative recovery of radioactivity", "value": "6.8% and 4.93% and 6.73% and 5.62% and 6.33% and 4.97%"}
{"SMILES": "N#Cc1ccnc(N2Cc3cn(Cc4ccc(F)cc4)nc3C2)n1", "test": "metabolic stability", "system": "human, liver microsomes", "endpoint": "half-life", "value": "51 min"}
{"SMILES": "Cc1noc(C)c1Cn1cc(N2C(=O)CN(Cc3cccc(OS(=O)(=O)O)c3)C2=O)cn1", "system": "rat Sprague-Dawley male, plasma", "setting": "oral, 100 mg/kg of parent drug, 4 h", "endpoint": "plasma concentration", "value": "334 ± 90.5 ng/mL"}
{"SMILES": "C[C@]12C[C@H](c3ccc(S(C)(=O)=O)cc3)C3=C4CCC(=O)C=C4CC[C@H]3[C@@H]1CC[C@@]2(O)C(F)(F)C(F)(F)F", "test": "refers to: compound (parent)", "system": "healthy human volunteers, pooled plasma", "setting": "oral, 5 mg daily, day 28, 8 h", "endpoint": "plasma concentration", "value": "18.9 ng/mL"}
{"SMILES": "COc1ccc2c(c1)CCn1c[n+]3c(c1-2)-c1ccc(OC)cc1CC3", "system": "female NSG mice, blood", "setting": "6 mg/kg, day 7, 5 days per week", "endpoint": "mean platelet volume", "value": "5.37 ± 0.12 fL"}
{"SMILES": "COCC1CN(C2CCN(c3cc(OC)c(Nc4ncc(Br)c(Nc5ccc6c(c5P(C)(C)=O)OCCO6)n4)cc3C)CC2)C1", "test": "first-in-human trial", "system": "human", "setting": "oral, 240 mg once daily", "scale": "treatment-related leading to permanent discontinuation", "endpoint": "adverse events", "value": "0%"}
{"SMILES": "CC(C)c1cnc(-c2cc(Cl)ccc2F)cc1Nc1ccncc1C(=O)NC(CO)CO", "system": "female C57BL/6 mice, plasma", "setting": "oral, 30 mg/kg twice daily, day 1, MC-38 tumour-bearing", "endpoint": "Tmax", "value": "60 min"}
{"SMILES": "C=C(NC(=O)c1csc(-c2nc3c(cc2O)-c2nc(cs2)C(=O)NC(C(C)O)C(=O)NC(=C(C)OC)c2nc(cs2)C(=O)NC2c4nc(cs4)C(=O)NC(COC(=O)c4c5c6c(cccc6n4O)COC(=O)C(OC4CC(C)(O)C(N(C)C)C(C)O4)C2OC5)c2nc-3cs2)n1)C(N)=O (stereo not shown)", "system": "ICR mice, Streptococcus pneumoniae ATCC 49169 infected, immunocompromised, blood", "setting": "intravenous, 16 mg/kg/day once daily", "endpoint": "Cmax", "value": "708 ng/mL"}
{"SMILES": "CC(C)(O)c1ncc([S@](N)(=O)=NC(=O)Nc2c3c(cc4c2CCC4)CCC3)s1", "test": "refers to: infections and infestations", "system": "healthy human", "setting": "oral, 30 mg, 14 days, CS formulation, once daily", "endpoint": "subjects with TEAEs", "value": "17%"}
{"note": "For quick reference, copied from above:"}
{"SMILES": "N#Cc1ccnc(N2Cc3cn(Cc4ccc(F)cc4)nc3C2)n1", "test": "metabolic stability", "system": "human, liver microsomes", "endpoint": "half-life", "value": "51 min"}
{"SMILES": "CC(=O)N([O-])CCCCCNC(=O)CCC(=O)N([O-])CCCCCNC(=O)CCC(=O)N([O-])CCCCCN.[89Zr+4]", "test": "radio-TLC", "system": "aqueous buffer", "setting": "3 d, pH 7.2, 37 °C, 89Zr-labelled complex, with: CoCl2 10-fold excess", "endpoint": "intact complex", "value": "96.7 ± 2.3%"}
{"SMILES": "O=C(Nc1cnccc1-c1ccc([18F])cc1)c1ccnc(NC(=O)C2CC2)c1", "test": "ex vivo gamma counting", "system": "GSK-3β transgenic mice, late-stage, cerebellum", "setting": "intravenous, 1.26 MBq/animal, 120 min, mean, no P-gp inhibitor", "endpoint": "SUV", "value": 0.14}
{"SMILES": "CCCCN1C(=O)c2cccc3c(NCCCCCCCCN4CCOCC4)ccc(c23)C1=O", "system": "toluene", "endpoint": "fluorescence quantum yield", "value": 0.98}
